Published values pooled from the literature.
Parts stem from different laboratories: compare values within a part only. Positions count from the first letter of the parent shown.

Block 1
Target: Ras GTPase-activating protein-binding protein 1, C-terminal RGG region (G3BP1, Homo sapiens, UniProt Q13283)
UniProt Q13283, sequence (whole entry, looked up): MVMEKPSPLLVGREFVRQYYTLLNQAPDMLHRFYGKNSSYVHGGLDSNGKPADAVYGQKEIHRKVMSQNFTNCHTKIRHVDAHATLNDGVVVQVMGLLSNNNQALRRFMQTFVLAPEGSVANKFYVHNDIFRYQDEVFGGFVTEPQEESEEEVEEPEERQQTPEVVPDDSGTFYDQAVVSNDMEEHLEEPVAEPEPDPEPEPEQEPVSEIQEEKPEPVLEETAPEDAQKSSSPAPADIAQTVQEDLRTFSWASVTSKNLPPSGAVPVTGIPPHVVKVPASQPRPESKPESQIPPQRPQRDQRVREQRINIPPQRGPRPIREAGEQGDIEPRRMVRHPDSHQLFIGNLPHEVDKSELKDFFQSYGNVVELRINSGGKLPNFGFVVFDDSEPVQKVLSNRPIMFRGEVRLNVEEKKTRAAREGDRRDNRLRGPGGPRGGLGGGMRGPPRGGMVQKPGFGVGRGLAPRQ
Technique: RNA Bind-n-Seq
Molecule type: RNA
Matrix: in vitro
Tested at: 1 µM
Setting: whole 134-nt RNA, ends assumed
With: 150 mM KCl
Baseline: input library
Direction: higher = stronger binding
Measurement: log2 enrichment
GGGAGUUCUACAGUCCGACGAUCGCAGGAAGUAAAAACCAAUGGAAAUGCUUCGGAUAGUGGCAGGGGUGGGGGUUGCUAAGGAAAGGGUGGGAUGGGAGUGGGUAAAGAGUUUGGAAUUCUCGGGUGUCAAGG: 2.29
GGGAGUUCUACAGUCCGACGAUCUUCAAAACAGAAUCCUUCCAGUCCUCUUCAGCGUUUAAUUCCAGGCUCAAACUUGGACAGUGAACCCAGAAUUCAAACAGAUAUACUAAAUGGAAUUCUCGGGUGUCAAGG: -0.215
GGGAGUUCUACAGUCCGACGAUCAGUCCUGUGCUACACAUCGUAUGUACCGAAUCGGGGCCCCGGCCCCGGGGCCCCGGGAAAGUAUUAUGUUACGCCGUUCGGAUCUGCACUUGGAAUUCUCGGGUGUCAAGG: -2.89
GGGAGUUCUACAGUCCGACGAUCUCAAGUCCUGUGCUACACAUCGUAUGUACCGAAUCGGGUUUGGGGUUUGGUUUGGAAAGUAUUAUGUUACGCCGUUCGGAUCUGCACUUCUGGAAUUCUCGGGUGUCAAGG: -0.913
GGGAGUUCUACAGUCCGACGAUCUCCUGUGCUACACAUCGUAUGUACCGAAUCGGGGAAAAAGGGGAAAAAGGGAAAAAGGGGAAAGUAUUAUGUUACGCCGUUCGGAUCUGCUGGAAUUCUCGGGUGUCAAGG: -0.26
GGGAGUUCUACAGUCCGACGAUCCCUGUGCUACACAUCGUAUGUACCGAAUCGGGGUUUUUUUGGGGAAAAAAAGGGGUGGGGAAAGUAUUAUGUUACGCCGUUCGGAUCUGCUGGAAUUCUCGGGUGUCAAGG: 0.105
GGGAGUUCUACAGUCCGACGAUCGUCCUGUGCUACACAUCGUAUGUACCGAAUCGGGUUUUUUUGGGUUUGGGUUUUUGGGAAAGUAUUAUGUUACGCCGUUCGGAUCUGCACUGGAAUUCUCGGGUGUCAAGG: 0.321
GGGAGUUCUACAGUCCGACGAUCUGGCCCUGGUGGCAUGCGGGGAGGAAGAGGUGGCCUCUUGGAUCGUGGUGGUCCCGGUGGAAUGUUCAGAGGUGGCCGUGGUGGAGACAGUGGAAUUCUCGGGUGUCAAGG: 2.21
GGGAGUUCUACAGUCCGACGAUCAGUCCUGUGCUACACAUCGUAUGUACCGAAUCGGUUUUUGGUUUUUGGGGUUUUUGGGAAAGUAUUAUGUUACGCCGUUCGGAUCUGCACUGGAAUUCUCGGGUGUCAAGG: -1.38

Block 2
Target: CCND3, cyclin fold, Cln2 fusion (human)
Technique: yeast growth competition, sequencing
Matrix: yeast
Setting: weak parent motif
Baseline: not given
Direction: higher = stronger binding
Measurement: normalised enrichment score
Starting sequence: WEE1 docking peptide (human); HKTFRKLRLFDTP; partner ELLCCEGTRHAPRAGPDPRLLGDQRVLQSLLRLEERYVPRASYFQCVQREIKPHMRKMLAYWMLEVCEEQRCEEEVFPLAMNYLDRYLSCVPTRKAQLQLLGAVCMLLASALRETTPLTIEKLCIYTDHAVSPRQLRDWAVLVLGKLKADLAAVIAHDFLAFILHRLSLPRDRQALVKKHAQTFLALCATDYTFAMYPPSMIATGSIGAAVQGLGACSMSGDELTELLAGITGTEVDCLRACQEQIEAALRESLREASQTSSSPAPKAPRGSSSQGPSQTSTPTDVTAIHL
HKTIRKLRLFDTP [F4I]: 0.0355
HKTARKLRLFDTP [F4A]: 0.21
HKTFRKLRLFITP [D11I]: 0.183
HKTFRKLRLSDTP [F10S]: 0.0842
HKTFRKLRLHDTP [F10H]: 0.086
HKTFRKLRLFDTC [P13C]: 0.148
HKTFRKLELFDTP [R8E]: 0.158
HKSFRKLRLFDTP [T3S]: 0.0816
HKTFRKLRLFWTP [D11W]: 0.126
HKVFRKLRLFDTP [T3V]: 0.231
HKTFRKLRLFDTF [P13F]: 0.128
HKTFRKLRLFDTS [P13S]: 0.0555
HKTFRKLRQFDTP [L9Q]: 0.238

Block 3
Target: Sal-like protein 4, full length isoform A (SALL4, Homo sapiens, UniProt Q9UJQ4, residues 1-1053)
UniProt Q9UJQ4, sequence (whole entry, looked up): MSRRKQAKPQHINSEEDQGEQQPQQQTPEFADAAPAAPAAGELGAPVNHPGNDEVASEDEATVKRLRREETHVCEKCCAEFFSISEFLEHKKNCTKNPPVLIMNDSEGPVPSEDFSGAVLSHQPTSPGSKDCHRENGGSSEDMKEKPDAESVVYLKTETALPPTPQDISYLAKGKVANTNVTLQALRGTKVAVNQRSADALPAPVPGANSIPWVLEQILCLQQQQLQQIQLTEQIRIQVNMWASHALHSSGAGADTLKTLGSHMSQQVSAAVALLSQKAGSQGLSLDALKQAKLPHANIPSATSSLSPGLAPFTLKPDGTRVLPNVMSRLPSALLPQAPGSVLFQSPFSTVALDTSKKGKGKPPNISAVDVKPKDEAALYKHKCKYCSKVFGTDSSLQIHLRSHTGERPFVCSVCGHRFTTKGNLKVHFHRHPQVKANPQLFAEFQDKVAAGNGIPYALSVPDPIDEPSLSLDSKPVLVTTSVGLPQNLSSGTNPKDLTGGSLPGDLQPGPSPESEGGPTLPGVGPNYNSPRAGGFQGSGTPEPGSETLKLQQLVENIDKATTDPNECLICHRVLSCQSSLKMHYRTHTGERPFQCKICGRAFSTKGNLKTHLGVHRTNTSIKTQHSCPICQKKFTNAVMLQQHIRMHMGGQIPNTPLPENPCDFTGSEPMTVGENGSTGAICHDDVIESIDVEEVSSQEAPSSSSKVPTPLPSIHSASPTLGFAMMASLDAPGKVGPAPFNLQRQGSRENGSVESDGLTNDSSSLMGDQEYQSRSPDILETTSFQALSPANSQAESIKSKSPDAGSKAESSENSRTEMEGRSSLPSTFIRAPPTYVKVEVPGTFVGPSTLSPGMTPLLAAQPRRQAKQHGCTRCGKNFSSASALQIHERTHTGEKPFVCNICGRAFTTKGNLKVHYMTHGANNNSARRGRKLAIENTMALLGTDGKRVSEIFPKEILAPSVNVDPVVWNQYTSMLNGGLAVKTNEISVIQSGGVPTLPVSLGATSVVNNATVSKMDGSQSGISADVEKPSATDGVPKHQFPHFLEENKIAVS
Technique: universal PBM
Molecule type: double-stranded DNA, one strand shown
Matrix: in vitro
Tested at: 600 nM
Setting: 8-mer, flanks averaged, mean of replicates
Direction: higher = stronger binding
Measurement: E-score
AAGTACTC: -0.0184
TCAAGCAA: 0.079
ATGGTCCG: -0.157
ATTAAATA: 0.438
CTTTTGCA: 0.173
GCTTGCTA: -0.0992
ACTATGTG: 0.15
GTAGTGAA: 0.0172
CCCACTAC: -0.244
GGGACGCA: -0.221
AAAAGGGC: -0.134
AAGTTTAA: 0.144
ACACGGAC: -0.118
CAGCACCA: -0.194
ATCACGCA: -0.033

Block 4
Target: Cellular tumor antigen p53, full length (TP53, Homo sapiens, UniProt P04637, residues 1-393)
Technique: protein-binding microarray
Molecule type: hairpin DNA
Matrix: in vitro
Tested at: not given
Setting: whole hairpin DNA, median over replicate spots
Baseline: not given
Direction: higher = stronger binding
Measurement: median fluorescence
CGGACATGCCCGGGGATGTCTCCTGACATCCCCGGGCATGTCCGACACTC: 9480 a.u.
CCACACGTGGTGCGATGCCTTCCTAGGCATCGCACCACGTGTGGACACTC (5mC at 31): 5000 a.u.
CGGACATGCCTGGGCATGTCTCCTGACATGCCCAGGCATGTCCGACACTC: 18500 a.u.
CGGACATGCCCGGCCATGTCTCCTGACATGGCCGGGCATGTCCGACACTC: 9780 a.u.
CGGACATCGCCGGGCATGTCTCCTGACATGCCCGGCGATGTCCGACACTC (5mC at 36): 13000 a.u.
CCACACATGGTGGCATGCCTTCCTAGGCATGCCACCATGTGTGGACACTC: 7430 a.u.
CCACACTTGGTGGCATGCCTTCCTAGGCATGCCACCAAGTGTGGACACTC: 6440 a.u.
CGGACATGCGCGGGCATGTCTCCTGACATGCCCGCGCATGTCCGACACTC (5mC at 9 35): 14500 a.u.
CGGACATGCCCGGGCATGTCTCCTGACATGCCCGGGCATGTCCGACACTC (5mC at 31): 17900 a.u.
CCAGACGTGGTGGCATGCCTTCCTAGGCATGCCACCACGTCTGGACACTC (5mC at 41): 8060 a.u.
CGGACACGCCCGGGCATGTCTCCTGACATGCCCGGGCGTGTCCGACACTC (5mC at 7 37): 16800 a.u.
CGGACATGCCCGGGTATGTCTCCTGACATACCCGGGCATGTCCGACACTC: 9820 a.u.
CCACACGTGGTGCCATGCCTTCCTAGGCATGGCACCACGTGTGGACACTC: 4690 a.u.
CGGACATGCCCGGGCGTGTCTCCTGACACGCCCGGGCATGTCCGACACTC: 13100 a.u.
CGGACATGCCCGGGCATGTCTCCTGACATGCCCGGGCATGTCCGACACTC (5mC at 15): 23400 a.u.
CCACACGTGGTGGTATGCCTTCCTAGGCATACCACCACGTGTGGACACTC: 4400 a.u.
CCACACGTGGTGGCATGCCTTCCTAGGCATGCCACCACGTGTGGACACTC (5mC at 6 38): 7300 a.u.
CGGACATGCCCTGGCATGTCTCCTGACATGCCAGGGCATGTCCGACACTC: 14400 a.u.

For quick reference, copied from above (block 3):
GTAGTGAA: 0.0172
ACTATGTG: 0.15
GCTTGCTA: -0.0992
AAGTTTAA: 0.144
CCCACTAC: -0.244
